Measured values collected from several papers.
Lines come from different studies, so protocols differ. Numbers after ± are the reported error.

`C[C@H](C(=O)NCC(=O)N[C@@H](Cc1ccc(O)cc1)C(=O)N[C@H]1CCCCNC(=O)C[C@@H](C(=O)N[C@@H](Cc2cccc3ccccc23)C(=O)N[C@@H](Cc2cccc3ccccc23)C(=O)N[C@H](CCC(=O)O)C(=O)O)NC(=O)[C@H](Cc2ccc(O)cc2)NC(=O)[C@H]([C@@H](C)O)NC(=O)[C@@H]2CCCN2C(=O)[C@H](CC(N)=O)NC1=O)N(C)C(=O)[C@H](CCCNC(=N)N)NC(=O)[C@H](CCCNC(=N)N)NC(=O)[C@H](CCCNC(=N)N)NC(=O)[C@H](CCC(N)=O)NC(=O)[C@H](CCCNC(=N)N)NC(=O)[C@H](CCCNC(=N)N)NC(=O)[C@H](CCCCN)NC(=O)[C@H](CCCCN)NC(=O)[C@H](CCCNC(=N)N)NC(=O)CNC(=O)[C@@H](N)Cc1ccc(O)cc1` gave a viability of 75% (mouse primary neurons; 20 µM).
With `CC1(C)C=Cc2c(cc3oc(-c4ccccc4)cc(=O)c3c2O)O1` the viability was 100 ± 6.3% (differentiated SH-SY5Y; MTT; 10 µM; baseline: control).
`Nc1nnc(NCc2c(Cl)cccc2Oc2ccccc2)[nH]1` — result for viability: “not toxic” (K562; MTS; concentration not given, 72 h).
`CC1(C)C(/C=C/C=C/C=C/C=C2/N(CCC(=O)N[C@@H]3CSSC[C@@H](C(=O)N[C@@H](CCCCN)C(=O)O)NC(=O)[C@@H]4CCCN4C(=O)[C@H](CO)NC(=O)[C@H](CC(=O)O)NC(=O)[C@H](CCCNC(=N)N)NC(=O)CNC3=O)c3ccc4ccccc4c3C2(C)C)=[N+](CCC(=O)O)c2ccc3ccccc3c21`: viability “no effect” (4T1 or fibroblasts; concentration not given, 48 or 72 h).
The viability of `CC1(C)C=Cc2c(cc(O)c3c(=O)cc(-c4ccccc4)oc23)O1` is reported as 83.4 ± 1.1% (differentiated SH-SY5Y; MTT; 100 µM, 24 h, retinoic acid differentiated; baseline: control).
With `CC[C@H](C)[C@H](NC(=O)[C@H](CCCCN)NC(=O)[C@H](CCC(=O)O)NC(=O)[C@H](CCCCN)NC(=O)[C@H](CO)NC(=O)[C@H](CCCCN)NC(=O)[C@H](CCCNC(=N)N)NC(=O)[C@H](Cc1ccccc1)NC(=O)[C@H](Cc1ccccc1)NC(=O)[C@H](CC(=O)O)NC(=O)CNC(=O)[C@H](CC(C)C)NC(=O)[C@@H](N)CC(C)C)C(=O)NCC(=O)N[C@@H](CCCCN)C(=O)N[C@@H](CCC(=O)O)C(=O)N[C@@H](Cc1ccccc1)C(=O)N[C@@H](CCCCN)C(=O)N[C@@H](CCCNC(=N)N)C(=O)N[C@H](C(=O)N[C@H](C(=O)N[C@@H](CCC(N)=O)C(=O)N[C@@H](CCCNC(=N)N)C(=O)N[C@H](C(=O)N[C@@H](CCCCN)C(=O)N[C@@H](CC(=O)O)C(=O)N[C@@H](Cc1ccccc1)C(=O)N[C@@H](CC(C)C)C(=O)N[C@@H](CCCNC(=N)N)C(=O)N[C@@H](CC(N)=O)C(=O)N[C@@H](CC(C)C)C(=O)N[C@H](C(=O)N1CCC[C@H]1C(=O)N[C@@H](CCCNC(=N)N)C(=O)N[C@H](C(=O)N[C@@H](CCC(=O)O)C(=O)N[C@@H](CO)C(=O)O)[C@@H](C)O)C(C)C)[C@@H](C)CC)C(C)C)[C@@H](C)CC` the viability was 70% (differentiated SH-SY5Y; microglia-mediated neurotoxicity, MTT, microglial supernatant transfer; 30 µM, 2 days; baseline: fresh medium).
Under viability, `C[C@@H]1NC(=O)[C@H](CCC(=O)O)NC(=O)[C@@H]2CSSC[C@H](NC(=O)[C@H](CCCCN)NC(=O)CNC1=O)C(=O)N[C@@H](CO)C(=O)N[C@H]1CSSC[C@H](NC(=O)[C@H](CC(=O)O)NC(=O)[C@@H]3CSSC[C@H](NC(=O)[C@H](Cc4ccc(O)cc4)NC1=O)C(=O)N[C@@H](CC(=O)O)C(=O)N[C@@H](C)C(=O)NCC(=O)N[C@@H](CC(=O)O)C(=O)N3)C(=O)N[C@@H](CCCCN)C(=O)N2` is recorded as “not toxic” (OVCAR-3 and HFLS-RA; CellTiter-Glo; up to 100 µM).
With `COc1cc2c(=O)cc(-c3ccccc3)oc2c2c1OC(C)(C)C=C2` the viability was 75.3 ± 2.3% (differentiated SH-SY5Y; MTT; 100 µM; baseline: control).
`CC(C)C[C@H](NC(=O)[C@H](CCN)NC(=O)[C@H](CCN)NC(=O)[C@H](CC(C)C)NC(=O)[C@H](Cc1c[nH]c2ccccc12)NC(=O)[C@H](CCN)NC(=O)[C@@H](N)CC(C)C)C(N)=O` has a viability of about 90% (L132; MTT; 100 µM, 4 h).

Excerpt of the above:
`CC1(C)C(/C=C/C=C/C=C/C=C2/N(CCC(=O)N[C@@H]3CSSC[C@@H](C(=O)N[C@@H](CCCCN)C(=O)O)NC(=O)[C@@H]4CCCN4C(=O)[C@H](CO)NC(=O)[C@H](CC(=O)O)NC(=O)[C@H](CCCNC(=N)N)NC(=O)CNC3=O)c3ccc4ccccc4c3C2(C)C)=[N+](CCC(=O)O)c2ccc3ccccc3c21`: viability “no effect” (4T1 or fibroblasts; concentration not given, 48 or 72 h).
